# Published values collected from several papers.
# Every numbered part comes from another study and shows a few of its results, in no order. “And” joins repeats or separate records; there may be more than shown.
# Sequence of UniProt P28335 (whole entry, looked up): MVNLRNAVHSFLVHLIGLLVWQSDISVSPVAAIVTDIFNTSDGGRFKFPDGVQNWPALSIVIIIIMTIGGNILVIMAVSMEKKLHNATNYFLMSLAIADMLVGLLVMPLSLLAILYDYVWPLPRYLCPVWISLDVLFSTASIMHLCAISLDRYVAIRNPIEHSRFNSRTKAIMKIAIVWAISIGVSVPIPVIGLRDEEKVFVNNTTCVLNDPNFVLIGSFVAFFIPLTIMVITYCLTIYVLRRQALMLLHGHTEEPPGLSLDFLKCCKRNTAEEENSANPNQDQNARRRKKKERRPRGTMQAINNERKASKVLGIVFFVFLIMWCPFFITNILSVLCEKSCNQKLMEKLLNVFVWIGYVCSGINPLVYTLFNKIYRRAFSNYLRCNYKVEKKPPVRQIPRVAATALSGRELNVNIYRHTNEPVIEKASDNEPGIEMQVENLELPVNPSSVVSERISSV
# Sequence of UniProt P41143 (whole entry, looked up): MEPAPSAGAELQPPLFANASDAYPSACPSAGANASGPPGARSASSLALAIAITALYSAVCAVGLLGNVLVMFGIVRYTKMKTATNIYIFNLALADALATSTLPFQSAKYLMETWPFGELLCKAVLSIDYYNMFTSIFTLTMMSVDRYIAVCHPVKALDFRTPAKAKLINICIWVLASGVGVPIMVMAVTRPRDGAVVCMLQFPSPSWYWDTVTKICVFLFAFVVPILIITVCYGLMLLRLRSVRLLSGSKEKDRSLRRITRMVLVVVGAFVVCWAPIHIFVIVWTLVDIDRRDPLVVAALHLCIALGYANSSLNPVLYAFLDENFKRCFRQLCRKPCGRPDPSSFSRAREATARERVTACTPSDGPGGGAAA

# Study 1
# Organism: Sarcocystis neurona
# Effect on: parasite growth
# Concentration: 10 µM
# Time: 96 h
# Setting: first screen
# Baseline: untreated
Structure (SMILES),log2 fold change
CC(C)CC(N(C)C)C1(c2ccc(Cl)cc2)CCC1 (stereo not drawn),-0.00194
Cc1ccc(-c2nc3ccc(C)cn3c2CC(=O)N(C)C)cc1,0.85
CC(C)/N=c1\cc2n(-c3ccc(Cl)cc3)c3ccccc3nc-2cc1Nc1ccc(Cl)cc1,-7.42
C[C@]12Cc3c[nH]nc3C[C@@H]1CC[C@@H]1[C@@H]2CC[C@@]2(C)[C@H]1CC[C@]2(C)O,-0.25
CCOC(=O)C1(c2ccccc2)CCN(CCC(C#N)(c2ccccc2)c2ccccc2)CC1,-0.33

# Study 2
# Cell line: mouse MPNST tumor cells
# Method: high-content nuclear imaging
# Measured: cell number
# Concentration: 10 µM
# Time: 12 h
# Setting: mean of 2 replicates
# Baseline: plate mean
# Direction: higher = more cells
Compound,nuclei count
Cc1ccccc1C(c1ccccc1C)N1C2CCC1CC(O)(c1ccccc1)C2 (stereo not drawn),3.04 z-score
CC(=O)OCC(=O)[C@H]1CC[C@H]2[C@@H]3CC[C@H]4C[C@H](O)CC[C@]4(C)[C@H]3C(=O)C[C@]12C,2.44 z-score
C[C@]12COC(=O)C[C@@H]1CC[C@@H]1[C@@H]2CC[C@@]2(C)[C@H]1CC[C@]2(C)O,4.63 z-score
O=[N+]([O-])O[C@H]1CO[C@H]2[C@@H]1OC[C@H]2O[N+](=O)[O-],0.174 z-score and 1.35 z-score
CN(C)[C@@H]1C(=O)C(C(N)=O)=C(O)[C@@]2(O)C(=O)C3=C(O)c4c(O)cccc4[C@@](C)(O)[C@H]3[C@H](O)[C@@H]12,-0.0671 z-score
CC(C)[C@@]1(NC(=O)[C@@H]2C[C@@H]3c4cccc5[nH]cc(c45)C[C@H]3N(C)C2)O[C@@]2(O)[C@@H]3CCCN3C(=O)[C@H](Cc3ccccc3)N2C1=O,4.55 z-score
O=C1NC(=O)c2c1c1c3ccccc3[nH]c1c1[nH]c3ccccc3c21,6.49 z-score

# Study 3
# Target: Leukocyte tyrosine kinase receptor (LTK, Homo sapiens, UniProt P29376)
# Sequence of UniProt P29376 (whole entry, looked up): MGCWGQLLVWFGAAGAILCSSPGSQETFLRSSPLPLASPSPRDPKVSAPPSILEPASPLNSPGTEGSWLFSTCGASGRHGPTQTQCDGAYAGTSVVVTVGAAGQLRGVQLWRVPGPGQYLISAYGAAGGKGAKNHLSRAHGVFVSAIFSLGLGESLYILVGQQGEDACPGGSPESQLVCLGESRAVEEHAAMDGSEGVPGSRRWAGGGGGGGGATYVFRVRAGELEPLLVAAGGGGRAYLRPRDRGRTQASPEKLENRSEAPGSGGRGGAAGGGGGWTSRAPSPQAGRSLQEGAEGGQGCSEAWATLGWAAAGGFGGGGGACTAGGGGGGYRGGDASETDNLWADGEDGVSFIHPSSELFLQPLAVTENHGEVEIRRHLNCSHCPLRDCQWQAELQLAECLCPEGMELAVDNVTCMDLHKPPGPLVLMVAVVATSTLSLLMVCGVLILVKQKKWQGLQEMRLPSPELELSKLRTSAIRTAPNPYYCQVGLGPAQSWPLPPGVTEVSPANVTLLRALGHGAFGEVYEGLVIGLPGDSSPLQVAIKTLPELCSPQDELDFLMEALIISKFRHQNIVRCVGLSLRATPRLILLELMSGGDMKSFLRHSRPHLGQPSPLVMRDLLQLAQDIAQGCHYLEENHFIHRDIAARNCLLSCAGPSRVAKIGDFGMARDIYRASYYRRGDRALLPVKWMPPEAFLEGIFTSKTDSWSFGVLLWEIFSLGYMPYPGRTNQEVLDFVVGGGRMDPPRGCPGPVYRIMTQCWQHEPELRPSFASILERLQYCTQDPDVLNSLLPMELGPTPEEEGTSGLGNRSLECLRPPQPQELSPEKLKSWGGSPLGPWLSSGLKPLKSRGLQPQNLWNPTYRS
# Effect on: enzyme activity
# Mode: inhibitor
# Method: radiometric
# Concentration: 0.5 µM
Compound,remaining activity [%]
NCCNc1ncc(C(N)=O)c(Nc2cccc(C(F)(F)F)c2)n1,84.8
Nc1ccc2ncnc(NCCc3ccc(Oc4ccccc4)cc3)c2c1,106
Cc1ccc(Nc2nccc(N(C)c3ccc4c(C)n(C)nc4c3)n2)cc1S(N)(=O)=O,80.2
COc1cc2ncnc(Nc3ccc(Oc4ccccc4)cc3)c2cc1OC,98.3
O=C1Nc2ccc3ncsc3c2/C1=C/c1cnc[nH]1,83
COc1ccc(CNC(=O)Nc2ncc([N+](=O)[O-])s2)cc1,101
COc1ccc(C(=O)Nc2sc3c(c2C(N)=O)CCCC3)cc1OC,40.5
COc1cc2ncnc(Nc3ccc(F)c(Cl)c3)c2cc1OCCCN1CCOCC1,90.4
O=C1NC(=O)c2cc(Nc3ccc(F)cc3)c(Nc3ccc(F)cc3)cc21,99.7
C#Cc1cccc(Nc2ncnc3cc(OCCOC)c(OCCOC)cc23)c1,66.3
CCOC(=O)c1c(C)[nH]c(/C=C2\C(=O)Nc3ccccc32)c1C,66.9
Nc1ncnc2n[nH]c(Nc3ccc(F)cc3)c12,92.5
COc1cc2nccc(Oc3ccc(NC(=S)NC(=O)c4ccccc4C)cc3)c2cc1OC,86.1
O=S(=O)(c1cccc2cnccc12)N1CCCNCC1,95.2
N#CCCc1ccc2c(c1)-c1[nH]c3ccc([N+](=O)[O-])cc3c1CC(=O)N2,80
CNC(=O)c1cc(Oc2ccc(NC(=O)Nc3ccc(Cl)c(C(F)(F)F)c3)cc2)ccn1,99.9
O=C(O)c1ccc2c3c1cccc3c(=O)n1c3ccccc3nc21,72.7
Cn1c2ccccc2c2c3c(c4c5ccccc5n(CCC#N)c4c21)CNC3=O,8.79

# Study 4
# Cell line: HaCaT
# Concentration: 100 µM
# Time: 60 h
SMILES,viability [%]
CCC1(c2cccc(O)c2)CCCCN(C)C1 (stereo not drawn),149
COc1cc2c(cc1OC)C13CCN4CC5=CCOC6CC(=O)N2C1C6C5CC43 (stereo not drawn),110
NC(=O)CN1CC(O)CC1=O (stereo not drawn),160
CN[C@H]1C[C@@H](N)[C@H](O)[C@@H](O[C@@H]2O[C@H](CO)[C@H](O)[C@@H]3OC4(O[C@H]23)O[C@H]([C@@H](N)CO)[C@H](O)[C@H](O)[C@H]4O)[C@@H]1O (stereo partly drawn),74.5

# Study 5
# Target: Calcium/calmodulin-dependent protein kinase type II subunit alpha (CAMK2A, Homo sapiens, UniProt Q9UQM7)
# Sequence of UniProt Q9UQM7 (whole entry, looked up): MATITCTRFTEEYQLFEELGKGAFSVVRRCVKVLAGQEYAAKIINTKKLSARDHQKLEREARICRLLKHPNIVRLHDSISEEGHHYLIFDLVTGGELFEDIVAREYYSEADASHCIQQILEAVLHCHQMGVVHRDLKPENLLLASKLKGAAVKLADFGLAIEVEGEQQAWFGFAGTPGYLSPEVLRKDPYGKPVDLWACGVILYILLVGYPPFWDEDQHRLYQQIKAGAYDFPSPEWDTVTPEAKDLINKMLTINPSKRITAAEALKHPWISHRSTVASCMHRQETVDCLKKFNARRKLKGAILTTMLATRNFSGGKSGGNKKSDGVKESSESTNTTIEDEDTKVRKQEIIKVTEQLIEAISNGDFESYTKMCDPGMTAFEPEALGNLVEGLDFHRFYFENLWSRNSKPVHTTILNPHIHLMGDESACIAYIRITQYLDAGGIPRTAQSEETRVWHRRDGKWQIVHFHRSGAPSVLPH
# Effect on: enzyme activity
# Mode: inhibitor
# Concentration: 10 µM
Compound,inhibition [%]
O=C(O)CNC(=O)C1C(=O)N(C2CCCCC2)C(=O)N(C2CCCCC2)C1=O,-7
COC[C@@]12CC[C@H](OC)[C@]34C([C@H]([C@H](OC)[C@H]13)[C@]1(O)[C@H]3[C@@H](OC(=O)c5ccccc5)[C@](O)(C[C@H]34)[C@@H](OC)[C@@H]1O)N(C)C2,-16
CC(=O)C(=O)c1ccccc1,-6
COc1ccc2c(c[n+](C)c3c4cc5c(cc4ccc23)OCO5)c1OC,-20
COc1cc(C(=O)O)cc(OC)c1OC,0
c1cc2c(cc1[C@H]1OC[C@H]3[C@@H]1CO[C@H]3c1ccc3c(c1)OCO3)OCO2,0

# Further values, each from its own experiment
# Effect on: binding
# Method: radioligand binding
# Concentration: 10 µM
SMILES,target,inhibition [%]
N#CN1CC[C@@H](C(=O)Nc2nc3c(s2)CN(C(=O)CN=[N+]=[N-])CC3)C1,"Delta-type opioid receptor (OPRD1, Homo sapiens, UniProt P41143)",4.07
Cc1nc(N2CC[C@@H](O)C2)ncc1-c1cc(C(F)(F)F)cc2[nH]ncc12,"5-hydroxytryptamine receptor 2C (HTR2C, Homo sapiens, UniProt P28335)",-0.722
